{"data": "Experimental data from different studies", "note": "Numbered parts are unrelated; each lists some results of a single study.", "sequence of UniProt P41595 (whole entry, looked up)": "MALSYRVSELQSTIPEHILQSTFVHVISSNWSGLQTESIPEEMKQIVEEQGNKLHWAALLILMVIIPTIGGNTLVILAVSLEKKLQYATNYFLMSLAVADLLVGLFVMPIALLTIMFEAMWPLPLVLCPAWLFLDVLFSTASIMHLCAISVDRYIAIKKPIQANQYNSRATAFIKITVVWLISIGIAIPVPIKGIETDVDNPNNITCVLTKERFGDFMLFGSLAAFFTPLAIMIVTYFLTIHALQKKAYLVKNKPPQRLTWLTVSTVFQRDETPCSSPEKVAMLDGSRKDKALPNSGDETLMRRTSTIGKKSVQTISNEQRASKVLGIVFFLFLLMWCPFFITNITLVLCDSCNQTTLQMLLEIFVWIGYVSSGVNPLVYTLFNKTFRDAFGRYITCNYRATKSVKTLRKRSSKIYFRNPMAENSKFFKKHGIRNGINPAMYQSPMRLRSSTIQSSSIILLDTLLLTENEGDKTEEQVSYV", "sequence of UniProt P47898 (whole entry, looked up)": "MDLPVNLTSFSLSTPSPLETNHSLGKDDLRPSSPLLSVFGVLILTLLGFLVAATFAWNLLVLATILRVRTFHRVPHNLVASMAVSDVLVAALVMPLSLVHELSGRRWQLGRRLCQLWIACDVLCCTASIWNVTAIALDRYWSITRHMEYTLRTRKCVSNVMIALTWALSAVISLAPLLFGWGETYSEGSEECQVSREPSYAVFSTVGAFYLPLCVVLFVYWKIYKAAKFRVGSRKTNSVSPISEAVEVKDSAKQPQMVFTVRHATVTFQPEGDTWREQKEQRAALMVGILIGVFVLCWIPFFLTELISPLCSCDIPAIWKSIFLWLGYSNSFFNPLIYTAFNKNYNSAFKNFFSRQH"}
{"data": "Sample 1", "target": "His6 tag", "method": "AlphaScreen counter screen", "tested at": "concentration not given"}
{"SMILES": "COC(=O)C=Cc1cc(O)ccc1O", "inhibition": "0.75%"}
{"SMILES": "Cc1c(C(N)=O)sc2nc[nH]c(=O)c12", "inhibition": "-3.6%"}
{"SMILES": "Brc1c(Br)c(Br)c2[nH]nnc2c1Br", "inhibition": "4.3%"}
{"SMILES": "O=CNc1cccc2c1sc1nc[nH]c(=O)c12", "inhibition": "7.25%"}
{"SMILES": "O=C(Nc1ccncc1)Nc1c(Cl)cc(Cl)cc1Cl", "inhibition": "0.4%"}
{"SMILES": "O=C1NC(=O)C(=Cc2ccc3c(c2)OC(F)(F)O3)S1", "inhibition": "-0.15%"}
{"SMILES": "N#CC(=C(N)Sc1ccc(N)cc1)c1ccccc1C(F)(F)F", "inhibition": "13.3%"}
{"SMILES": "COc1ccc(-c2[nH]c3ncccc3c2CN2CCN(S(=O)(=O)N(C)C)CC2)cc1", "inhibition": "1.85%"}
{"SMILES": "COc1cc2c(Nc3ccc(Br)cc3F)ncnc2cc1OCC1CCN(C)CC1", "inhibition": "3.7%"}
{"SMILES": "COc1ccc(-c2nnc3ccc(SCC(=O)N4CCC(C)CC4)nn23)cc1OC", "inhibition": "9.1%"}
{"SMILES": "N=C(N)NCCNS(=O)(=O)c1cccc2cnccc12", "inhibition": "7.05%"}
{"SMILES": "COc1ccc(-c2ccc3c(N4CCOC[C@@H]4C)nc(N4CCOC[C@@H]4C)nc3n2)cc1CO", "inhibition": "-45.5%"}
{"data": "Sample 2", "cell line": "Huh-7", "tested at": "10 µM", "time": "24 h"}
{"Structure (SMILES)": "CC(C)(Oc1ccc(CCNC(=O)c2ccc(Cl)cc2)cc1)C(=O)O", "viability": "97.6%"}
{"Structure (SMILES)": "N=C(N)N/N=C/c1c(Cl)cccc1Cl", "viability": "94.9%"}
{"Structure (SMILES)": "OCc1ccccc1O[C@@H]1O[C@H](CO)[C@@H](O)[C@H](O)[C@H]1O", "viability": "102%"}
{"Structure (SMILES)": "CC(C)COCC(CN(Cc1ccccc1)c1ccccc1)N1CCCC1 (centres unmarked)", "viability": "96.8%"}
{"Structure (SMILES)": "FC(F)(F)C(Cl)Br (centres unmarked)", "viability": "103%"}
{"Structure (SMILES)": "CN(CCOc1ccc(CC2SC(=O)NC2=O)cc1)c1ccccn1 (centres unmarked)", "viability": "94.6%"}
{"Structure (SMILES)": "CCCC(=O)O[C@]1(C(=O)CO)CC[C@H]2[C@@H]3CCC4=CC(=O)CC[C@]4(C)[C@H]3[C@@H](O)C[C@@]21C", "viability": "99.6%"}
{"Structure (SMILES)": "CC(CN(C)C)CN1c2ccccc2Sc2ccccc21 (centres unmarked)", "viability": "99.4%"}
{"Structure (SMILES)": "CC(=O)OCC1=C(C(=O)O)N2C(=O)[C@@H](NC(=O)Cc3cccs3)[C@H]2SC1", "viability": "102%"}
{"Structure (SMILES)": "CC(c1cc2ccccc2s1)N(O)C(N)=O (centres unmarked)", "viability": "98.2%"}
{"Structure (SMILES)": "[H]/N=C(/N)NS(=O)(=O)c1ccc(N)cc1", "viability": "90.5%"}
{"Structure (SMILES)": "CN(C/C=C/C#CC(C)(C)C)Cc1cccc2ccccc12", "viability": "97.6%"}
{"data": "Sample 3", "target": "Serine/threonine-protein kinase 24 (STK24, Homo sapiens, UniProt Q9Y6E0)", "observed": "enzyme activity", "mode": "inhibitor", "tested at": "0.5 µM", "baseline": "control", "sequence of UniProt Q9Y6E0 (whole entry, looked up)": "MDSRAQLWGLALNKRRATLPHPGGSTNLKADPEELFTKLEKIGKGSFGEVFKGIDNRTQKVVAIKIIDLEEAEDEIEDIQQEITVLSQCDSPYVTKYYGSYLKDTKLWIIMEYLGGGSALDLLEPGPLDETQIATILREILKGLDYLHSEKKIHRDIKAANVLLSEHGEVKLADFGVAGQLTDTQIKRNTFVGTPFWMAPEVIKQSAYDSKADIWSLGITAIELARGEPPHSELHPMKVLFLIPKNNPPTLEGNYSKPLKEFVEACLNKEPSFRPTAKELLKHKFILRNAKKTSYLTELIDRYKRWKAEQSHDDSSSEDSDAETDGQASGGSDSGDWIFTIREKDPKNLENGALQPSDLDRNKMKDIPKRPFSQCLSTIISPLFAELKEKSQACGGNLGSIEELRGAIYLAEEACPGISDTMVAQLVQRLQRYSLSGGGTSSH"}
{"Compound": "COc1cc2ncnc(Nc3ccc(O)c(Br)c3)c2cc1OC", "remaining activity [%]": 91.7}
{"Compound": "O=C1c2ccccc2-c2n[nH]c3cccc1c23", "remaining activity [%]": 77.5}
{"Compound": "C[C@@H]1CCN(C(=O)CC#N)C[C@@H]1N(C)c1ncnc2[nH]ccc12", "remaining activity [%]": 96.1}
{"Compound": "CN([C@@H](Cc1ccc(OS(=O)(=O)c2cccc3cnccc23)cc1)C(=O)N1CCN(c2ccccc2)CC1)S(=O)(=O)c1cccc2cnccc12", "remaining activity [%]": 102}
{"Compound": "CN(C)C[C@H]1CCn2c(c(C3=C(c4cn(C)c5ccccc45)C(=O)NC3=O)c3ccccc32)C1", "remaining activity [%]": 66.5}
{"Compound": "c1ccc(-c2cnc(Nc3ccc(OCCN4CCCC4)cc3)s2)cc1", "remaining activity [%]": 99.6}
{"Compound": "Cc1cn(-c2cc(NC(=O)c3ccc(C)c(Nc4nccc(-c5cccnc5)n4)c3)cc(C(F)(F)F)c2)cn1", "remaining activity [%]": 104}
{"Compound": "Cn1nc2c3c(cccc31)C(=O)c1ccccc1-2", "remaining activity [%]": 98.6}
{"Compound": "COc1cc2ncnc(Nc3cccc(Cl)c3)c2cc1OC", "remaining activity [%]": 96.8}
{"Compound": "CCN(CC)CCNC(=O)c1c(C)[nH]c(/C=C2\\C(=O)Nc3ccc(Cl)cc32)c1C", "remaining activity [%]": 22.2}
{"Compound": "O=c1cc(-c2cccc3c2Sc2ccccc2S3)oc(N2CCOCC2)c1", "remaining activity [%]": 97.8}
{"Compound": "CCN(CC)C(=O)c1ccc(Nc2nc(OCC3CCCCC3)c3[nH]cnc3n2)cc1", "remaining activity [%]": 84.5}
{"data": "Mixed results"}
{"SMILES": "O=C(O)c1cc(-c2ccc(C3CCNCC3)cc2)c2ccc(-c3ccc(C(F)(F)F)cc3)cc2c1", "target": "5-hydroxytryptamine receptor 5A (HTR5A, Homo sapiens, UniProt P47898)", "test": "ligand displacement", "conditions": "10 µM", "measurement": "inhibition", "value": "4.98%"}
{"SMILES": "COc1cccc(NC(=O)c2nc3scc(CN(C)Cc4ccccc4)c3c(=O)[nH]2)c1", "target": "5-hydroxytryptamine receptor 2B (HTR2B, Homo sapiens, UniProt P41595)", "test": "binding, radioligand binding", "measurement": "Ki", "value": "1600 nM"}
{"note": "Some of these lines once more (sample 1):"}
{"SMILES": "Brc1c(Br)c(Br)c2[nH]nnc2c1Br", "inhibition": "4.3%"}
{"SMILES": "O=CNc1cccc2c1sc1nc[nH]c(=O)c12", "inhibition": "7.25%"}
{"SMILES": "O=C(Nc1ccncc1)Nc1c(Cl)cc(Cl)cc1Cl", "inhibition": "0.4%"}
{"SMILES": "O=C1NC(=O)C(=Cc2ccc3c(c2)OC(F)(F)O3)S1", "inhibition": "-0.15%"}
{"SMILES": "N#CC(=C(N)Sc1ccc(N)cc1)c1ccccc1C(F)(F)F", "inhibition": "13.3%"}
